# Experimental data gathered from unrelated publications.
# Every numbered part comes from another study and shows a few of its results, in no order. Substitutions count along the parent as printed.

# Set 1
# Target: Interferon regulatory factor 5, full length, phosphomimetic (IRF5, Homo sapiens, UniProt Q13568-2, residues 1-514, K96S/S451D/S453D/S456D/S462D)
# Technique: protein-binding microarray
# Molecule type: double-stranded DNA, one strand shown
# Medium: in vitro
# Concentration: 250 nM
# Setting: 60-bp whole probe
# With: salmon DNA 0.4 mg/ml
# Baseline: random background probes
# Reading: higher = stronger binding
# Shared flanks, not repeated: GCCTAGCAC … GTCTTGATTCGCTTGACGCTGCTG
Sequence,log fluorescence [z-score]
GACCAGGGGCCACAGCCTCAGTGCTAG,-0.786
TTAGGTTTCGGGTTTCGGCTAGTGCTA,8.37
TTAGATTTCGGGTTTCGGTTAGTGCTA,8.96
GACGCACTGCTACTGCTGACGTGCTAG,-0.329
CTTTTTATGCTTTCTTTAACTGTGCTA,1.84
TTAGATTTCGGGACTGGACTAGTGCTA,2.64
TCATTTTTTTTTTTTGTACTGTGCTAG,1.19
TCAAGTTTTCCTCTGTCACTGTGCTAG,0.618
TTAGATATCAGTTTCGATTGGTGCTAG,10.2
TCATTTTTCTTTTATTAACTGTGCTAG,1.76
GACGGTCTCCTTATCCTGGCGTGCTAG,-0.262
GACGTTTTCGGTATCGGGACGTGCTAG,9.14
GACGATATCGGGTTACGAGACGTGCTA,2.03
TTAGGACTGCGTCTCGGTTAGTGCTAG,-0.273
GATGATTCCAGTTTCGAGACGTGCTAG,5.44
TTAGGACTGAGTTTCGGTTAGTGCTAG,9.22
TTAGGTTTCGACAATCGGTTAGTGCTA,6.55
GACGGTCTCCTACTACTGACGTGCTAG,-0.204
ATGTATACACACTATAGTGAAGTGCTA,0.504
GACGGACTGGCGACTGGGGACGTGCTA,-0.684
TTAGATATCAGTATCGTTTAGTGCTAG,4.73
TCATCTTTAACATATTCTACTGTGCTA,0.884
TTGGGACTGCTTTTCCTTTAGTGCTAG,-0.0406
TGTCCTTTCTCCATGGGTATGTGCTAG,1.24
GACGGTTTCCTTATCCTCACGTGCTAG,1.01

# Set 2
# Target: Ras GTPase-activating protein-binding protein 1, full length (G3BP1, Homo sapiens, UniProt Q13283)
# Sequence of UniProt Q13283 (whole entry, looked up): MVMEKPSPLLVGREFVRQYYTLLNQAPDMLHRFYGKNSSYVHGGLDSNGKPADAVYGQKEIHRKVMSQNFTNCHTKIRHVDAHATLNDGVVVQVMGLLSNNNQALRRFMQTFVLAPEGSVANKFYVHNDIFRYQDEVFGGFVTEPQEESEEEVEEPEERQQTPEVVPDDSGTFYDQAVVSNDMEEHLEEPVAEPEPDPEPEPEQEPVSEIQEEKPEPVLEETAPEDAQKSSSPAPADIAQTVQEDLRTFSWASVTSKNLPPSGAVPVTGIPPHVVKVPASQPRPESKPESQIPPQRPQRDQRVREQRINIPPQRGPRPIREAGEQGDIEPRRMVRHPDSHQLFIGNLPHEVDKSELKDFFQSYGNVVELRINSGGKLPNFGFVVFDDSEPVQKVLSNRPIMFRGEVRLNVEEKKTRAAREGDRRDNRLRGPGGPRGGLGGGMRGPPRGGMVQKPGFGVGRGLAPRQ
# Technique: RNA Bind-n-Seq
# Molecule type: RNA
# Medium: in vitro
# Concentration: 200 nM
# Setting: whole 134-nt RNA, ends assumed
# With: 150 mM LiCl
# Baseline: input library
# Reading: higher = stronger binding
# Library: 7-deaza-guanosine replaces G
# Shared flanks, not repeated: GGGAGUUCUACAGUCCGACGAUC … UGGAAUUCUCGGGUGUCAAGG
Sequence,log2 enrichment
UUUUACUUCUCCGCCAGGUGCUGUGCUCCAUCAUCGCCGGUACCUUGCACUAUCUCUACCUGGCCACCUUGACCUGGAUGCUGCUGGAGG,-0.0619
UGGGAGGUGGAUUUUGUUUAUUUUUUUAGCUCAUUUCCAGGGGUGGGGAUUUUUUUUUAAUAUGUGUCAUGAAUAAAGUUGUUUUUGAAA,-0.182
AAGUCCUGUGCUACACAUCGUAUGUACCGAAUCGGGGAAAAGGAAAAGGGAAAAGGAAAGUAUUAUGUUACGCCGUUCGGAUCUGCACUU,-0.379
UAACUUUAGAGGAGGAUCUGAUGGAUAUGGCAGUGGACGUGGAUUUGGGGAUGGCUAAAAUGGGUAUGGAGGAGGACCUGGAGGUGGCAA,-0.0343
ACCAUGCAGGUGGGCAUCUUUGGGAAGUGGGGCAAGGGGGGGAUAGGGAGGGGGGUAACACUUUGGGAACAGAAAGUCCCAGGUCGUUUC,0.108
UCAAGUCCUGUGCUACACAUCGUAUGUACCGAAUCGGGGAAGGGAAGGAAGGGGAAAGUAUUAUGUUACGCCGUUCGGAUCUGCACUUCC,-0.154
UAACUUUAGAGGAGGAUCUGAUGGAUAUGGCAGUGGACGUGGAUUUGGGGAUGGGUAUAAUGGGUAUGGAGGAGGACCUGGAGGUGGCAA,0.497
GUCCUGUGCUACACAUCGUAUGUACCGAAUCGGAAAAAAAGGUUUUUUUGGAAAAAGGAAAGUAUUAUGUUACGCCGUUCGGAUCUGCAC,-2.41
UCAAGUCCUGUGCUACACAUCGUAUGUACCGAAUCGGUUUGGGGUUUGGUUUGGGAAAGUAUUAUGUUACGCCGUUCGGAUCUGCACUUC,-1.23
UGGAGCCCAACCUGUGCCGCUCAGUCCUCAUUGCCAACACGGUCCGGCAGAUCCAAGAGGAGAUGACGCAGGAUGGGACGUGGCGCACAG,-2.04
GCAGGAAGUAAAAAGAAAUGGAAAUGCUUCGGAUAGUGGCAGGGGUGGGGGUUGCUAAGGAAAGGGUGGGAUGGGAGUGGGUAAAGAGUU,-0.273

# Set 3
# Target: CCNF, cyclin fold, Cln2 fusion (human)
# Technique: yeast growth competition, sequencing
# Medium: yeast
# Setting: strong parent motif
# Baseline: not given
# Reading: higher = stronger binding
# Starting sequence: CUX1 docking peptide (human); SRIRRELFIEEIQ
Substitution,normalised enrichment score
L7A,0.533
F8L,1.46
R5A L7A,-0.206
I3A,7.7
E11A,5.77
R5A,-0.247
I12A,4.68
R5K,2.29
R4A,4.81
I9A,6.96

# Set 4
# Target: RNA binding protein fox-1 homolog 2, RRM domain, GST-SBP tag (RBFOX2, Homo sapiens, UniProt O43251-10, residues 100-194)
# Technique: RNA Bind-n-Seq
# Molecule type: RNA
# Medium: in vitro
# Concentration: 365 nM
# Setting: natural RNA segment, single round, ends assumed
# Baseline: no-protein control
# Reading: higher = stronger binding
# Shared flanks, not repeated: GGGAGUUCUACAGUCCGACGAUC … UGGAAUUCUCGGGUGCCAA
# Construct (chain): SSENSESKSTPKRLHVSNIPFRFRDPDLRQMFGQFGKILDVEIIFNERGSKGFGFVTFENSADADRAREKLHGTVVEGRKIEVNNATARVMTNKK
Sequence,RBNS enrichment (R)
AUUAGAGUGUCUUUCCACGGAGCCACUCCUCUGACUCAGGGCUCCUGGGUUUUGUAUUCUCUGAGCUGUGCAGGUGGGGAGACUGGGCUGAGGGAGCCUGGCCCCAUGGU,0.664
GUUUUUACUGUGAAUGUAAAUGGAACAGCAGCCCCAGACCCUUGUCUCUGCCCUAGAGGUGCUACCUGUGACAGGGACCAAGUGCAUGUGUGUUCAGUGUUUGACUCCAA,0.995
AGGAGUUUCUAUAGCGAGACAUAGAAUAGUAUUCUGAUCAGUUGCCAAAGAAUCUAGGAAAUUAGUUGUAUUUUGUGCAAGCUAAUUUAAAAACAUGAUGGGCUGUUUUA,0.641
GAAUAAAUCACACCAGCUUCCUGAAAAUGUUCAUAAUGCAUCUUUUGGAAAACAAAUACAUGCCUACUUUGUGCAUAUUUGCAUUAACAUGGCAAAGAUUGUAUGAAAUA,0.311
ACCAGUAGGUAGUGUCAAGCCAGAGAUUCGGGGCAGUAGAUAAAUGUUCAUUUUACUGAUGCACUUUAGUUUUUGGUCUGUUACCUGUUUUCCAGAAAUUUGUGGCCUUU,0.57
ACCUGUUACUGGACAUGUCUUAUUAAAUGGGUUGCUGUAUUAGGAUUAUAAACAUUUUUCAUUAUUGGAAAGUGUGAAGGGGACCUUCUGCAUACCUGUUUAGAACCAAA,0.268
UCCAACCUGUCAGGCUGGCGCCUUAGAACUGAGCCUUAGGUUGGGCAGCGGGUCUCUGUCCUGGUAUUGAAUUUGCACAAGUGUGUGGUGACAUAUGUGCUUGUGGGCCA,0.898
GAGUUUUGGAGUCUUGUAUGAUUAUCAGUAUUCCCCUGUCAAAAUCAAAUCUAUUCAGGUUUCUUCACUGUUGAGAACACCUAAAUGUUUUUAUUUUUGAGAAGUGGGGA,1.01
UGAUAUCCCUUCUAUGAGCACAUUCUUAGCAGAAGAAAACAAUCCAACUACCAACACCCGACUCUAUUGGUGCAUUUAAAAUGUGAUUCCAUUUUUUCUUACAAUUCUUC,0.693
ACUUCCUUCCCAAAGAAAAUAGAUCCUCCAUGCAGGAUCUAGGAGAGUGACUGGGUGUGCCAAAAUAUGCCCAGGGUCCUGCCCUCAGCACUAGAUUUAAUGGGGCCAAG,0.416
AUAAUGCCUACCUUCAAAACCAGAAUCGGCAGCACUCUACAAAUGAAAGUGCCUGUGUCUCACACCAAGAAUCUUGCCUAACCUGUCAGAGUGCCUAAUCUUGUGGUUAU,0.351
GACGUUUUGACGAUGAGGAAAGGAGAUGCUCAGAGAGAGAGAGAUCAUGUGUUGUGAGUCAGAUCACACAGUCGAUAGGAUCAGUAUUUCAAUUCCAGAGCCCCUCCACU,0.276

# Repeated from above (set 1):
Sequence,log fluorescence [z-score]
TTGGGACTGCTTTTCCTTTAGTGCTAG,-0.0406
TGTCCTTTCTCCATGGGTATGTGCTAG,1.24
GACGGTTTCCTTATCCTCACGTGCTAG,1.01
